Results of several laboratories.
Each numbered part is a random draw from the data of one study; scales do not carry over between parts. Substitutions count along the parent as printed.

Series 1
Target: ABI1, truncated, D143A, DHFR fusion (Arabidopsis thaliana)
Method: DHFR PCA, deep sequencing
Medium: yeast
Notes: methotrexate growth selection, single substitutions
Added: (+)-ABA 0.0091 µM
Baseline: wild-type fitted maximum
Direction: higher = stronger binding
Endpoint: relative binding score
Parent: PYL1, truncated, DHFR fusion (Arabidopsis thaliana); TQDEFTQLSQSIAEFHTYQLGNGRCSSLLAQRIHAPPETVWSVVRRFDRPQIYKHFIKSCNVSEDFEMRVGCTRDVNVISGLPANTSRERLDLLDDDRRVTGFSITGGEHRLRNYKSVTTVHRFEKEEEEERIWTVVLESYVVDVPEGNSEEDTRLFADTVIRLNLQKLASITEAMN
L28S: -0.714%
S9L: 35%
R88D: -4.56%
Q19F: -1.74%
E131P: 72.6%
W134N: 7.63%
I105F: -8.99%
V142L: -0.757%
E64R: 25.5%
N85Y: 68.8%
T39Y: 0.817%
W41K: -11.7%
T160G: -4.78%
V143H: -2.07%
F47E: -0.289%

Series 2
Target: CCND3, cyclin fold, Cln2 fusion (human)
Method: yeast growth competition, sequencing
Medium: yeast
Notes: weak parent motif
Baseline: not given
Direction: higher = stronger binding
Endpoint: normalised enrichment score
Parent: CDC25A docking peptide (human); PPHRRRLLFACSP
F9Y: 0.163
A10L: -0.0409
P13K: 0.0681
L8E: 0.0893
P1D: 0.115
L8W: 0.144
A10C: 0.079
P2T: 0.19
R5K F9L: 0.0198
L7W: 0.139
P2S: 0.105
P13T: 0.18
R4K: 0.19
R4I: 0.155
L8Q: 0.0123
H3F: 0.178

Series 3
Target: Ras GTPase-activating protein-binding protein 1, C-terminal RGG region (G3BP1, Homo sapiens, UniProt Q13283)
Chain of UniProt Q13283 (whole entry, looked up): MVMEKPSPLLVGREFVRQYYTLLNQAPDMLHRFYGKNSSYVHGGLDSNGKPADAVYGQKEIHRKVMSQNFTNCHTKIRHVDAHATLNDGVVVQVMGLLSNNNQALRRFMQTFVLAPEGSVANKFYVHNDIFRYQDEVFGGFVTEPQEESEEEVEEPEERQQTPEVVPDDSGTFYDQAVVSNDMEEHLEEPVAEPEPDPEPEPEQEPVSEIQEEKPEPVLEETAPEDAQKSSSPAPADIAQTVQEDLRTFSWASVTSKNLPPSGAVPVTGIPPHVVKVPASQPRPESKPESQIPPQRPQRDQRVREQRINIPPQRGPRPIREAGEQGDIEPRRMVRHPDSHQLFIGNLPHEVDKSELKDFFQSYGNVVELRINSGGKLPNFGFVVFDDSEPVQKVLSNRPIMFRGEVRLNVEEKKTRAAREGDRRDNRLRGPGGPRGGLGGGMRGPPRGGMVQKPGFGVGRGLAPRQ
Method: RNA Bind-n-Seq
Form: RNA
Medium: in vitro
Concentration: 1 µM
Notes: whole 134-nt RNA, ends assumed
Added: 150 mM KCl
Baseline: input library
Direction: higher = stronger binding
Endpoint: log2 enrichment
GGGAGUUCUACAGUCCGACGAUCCUCAAGUCCUGUGCUACACAUCGUAUGUACCGAAUCGGGGUGGGUGGGUGGGGAAAGUAUUAUGUUACGCCGUUCGGAUCUGCACUUCCAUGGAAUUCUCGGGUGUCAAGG: 2.27
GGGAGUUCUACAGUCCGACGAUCAGUCCUGUGCUACACAUCGUAUGUACCGAAUCGGGUUUUUGGUUUUUGGUUUUUGGGAAAGUAUUAUGUUACGCCGUUCGGAUCUGCACUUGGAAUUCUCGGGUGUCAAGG: -1.77
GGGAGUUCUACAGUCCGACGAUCUUCCCUCUGUUUUAUUUUUCCCCCGUGUGUCCCUACUAUGGUCAGAAAGCCUGUUGUGUCCACCAUCUCCAAAGGAGGUUACCUGCAGGGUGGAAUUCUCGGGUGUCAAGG: -0.17
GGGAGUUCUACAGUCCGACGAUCCAAGUCCUGUGCUACACAUCGUAUGUACCGAAUCGGGCCCGGCCCGGGCCCGGGGAAAGUAUUAUGUUACGCCGUUCGGAUCUGCACUUCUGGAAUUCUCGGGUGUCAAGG: -2.18
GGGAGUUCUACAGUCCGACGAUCGUCCUGUGCUACACAUCGUAUGUACCGAAUCGGGGAGGGGAAAAAAAGGGGUUUGGGGAAAGUAUUAUGUUACGCCGUUCGGAUCUGCACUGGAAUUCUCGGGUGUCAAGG: 2.15
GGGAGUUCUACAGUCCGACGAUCUACUGCUCCUCAGCAGGAAGCGGAUGCUGAGGUGAACACAGAAACACUAAAUAAGUCCUCCCAGGGGAGCUCCUCGAGCACACAAUCAGCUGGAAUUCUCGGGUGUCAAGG: -0.326
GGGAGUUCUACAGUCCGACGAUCUCAAGUCCUGUGCUACACAUCGUAUGUACCGAAUCGGUUUUUUUGGUGGUUUGGAAAGUAUUAUGUUACGCCGUUCGGAUCUGCACUUCCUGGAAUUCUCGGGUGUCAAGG: -1.21
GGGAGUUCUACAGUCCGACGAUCCCUCAAGUCCUGUGCUACACAUCGUAUGUACCGAAUCGGGGAGGGAGGGAGGAAAGUAUUAUGUUACGCCGUUCGGAUCUGCACUUCCAGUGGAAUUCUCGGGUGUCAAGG: 1.83
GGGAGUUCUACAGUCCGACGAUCUUCCCUGUACCGGCAGAGUUCACAAACACAUUUGAAGAGGCUUUUUCUCAGGAUUCUUAACCUUCCCAAAGGAAGUCCCAUGGAUGGGUUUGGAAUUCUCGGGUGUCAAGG: -1.68
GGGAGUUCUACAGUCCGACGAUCAAGUCCUGUGCUACACAUCGUAUGUACCGAAUCGGGUUUUGGGUUUUGGGUUUUGGGAAAGUAUUAUGUUACGCCGUUCGGAUCUGCACUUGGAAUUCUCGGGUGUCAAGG: 0.86
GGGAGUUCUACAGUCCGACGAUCUCCUGUGCUACACAUCGUAUGUACCGAAUCAAAUUUAAACCCCCCCAAAUUUUUUUAAAAAAGUAUUAUGUUACGCCGUUCGGAUCUGCAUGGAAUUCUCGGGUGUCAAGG: -0.119
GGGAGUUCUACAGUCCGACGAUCGUCCUGUGCUACACAUCGUAUGUACCGAAUCGGGUUUUUGGGAAAAAGGGAAAAAGGGAAAGUAUUAUGUUACGCCGUUCGGAUCUGCACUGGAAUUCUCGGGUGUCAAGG: -0.837
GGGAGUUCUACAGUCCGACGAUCGUCCUGUGCUACACAUCGUAUGUACCGAAUCGGGGCCCCCGGCCCCCGGGGCCCCCGGAAAGUAUUAUGUUACGCCGUUCGGAUCUGCACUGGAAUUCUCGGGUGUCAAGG: -2.08
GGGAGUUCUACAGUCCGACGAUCUCUUCCGUGACAUUUCAUUUGGGGAACAACUUUUCUCUUUACAGGCCCGAGUGACUAAGGGAUGUACCAUUGUUAAGCCUUUCAACCUGUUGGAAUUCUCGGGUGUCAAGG: 0.416

Other studies, line by line
PhoQ, residues 284 288 289 292 302 303 SLSLLA — fold induction (PhoP, residues 12 14 15 18 19 NQFFI (Escherichia coli, UniProt P23836); Sort-seq, refers to: YFP reporter; E. coli; PhoQ-PhoP variant library, added: 10 µM Mg2+; baseline: high Mg2+ state, higher = stronger signaling): 11.2

A few entries again (series 2):
F9Y: 0.163
A10L: -0.0409
P13K: 0.0681
L8E: 0.0893
P1D: 0.115
L8W: 0.144
A10C: 0.079
